Published values pooled from the literature.
Lines come from different studies, so protocols differ. “And” joins repeats or separate records; there may be more than shown. ± gives the spread as reported.

| SMILES | test | system | setting | scale | measurement | result |
| --- | --- | --- | --- | --- | --- | --- |
| [O-][S+]1CCc2nc(N3CCC(c4ncc(Cl)cn4)CC3)nc(NC3(CO)CCC3)c21 (stereo not drawn) | measured: Nausea | healthy male humans | multiple doses, all groups | – | adverse event incidence | 6.3% |
| COc1ccc2nc3cc(Cl)ccc3c(Nc3cc(CN4CCCC4)c(O)c(CN4CCCC4)c3)c2n1 | – | mouse, blood | intraperitoneal, 28 mg/kg | – | monocytes | 2.7% |
| COc1ccc([C@@H](O)c2cc(-c3ncnc4cc(N5CCOCC5)ccc34)c(F)cc2Cl)nn1 | – | patients, advanced solid tumours | oral, 200 mg twice daily, treatment-emergent, together with: avelumab | – | colitis incidence | 10% |
| CC(=O)c1c(C)c2cnc(Nc3ccc(C4CCN(CCS(C)(=O)=O)CC4)cn3)nc2n(C2CCCC2)c1=O | – | HR+/HER2- advanced breast cancer patients | oral, dose not given, all grades, dose escalation, sample B patients | – | patients with GGT increased | 21.1% |
| CN(C(=O)n1cnc(-c2ccc[n+]([O-])c2)c1)C1CCCCC1 | – | Wistar rat, hippocampus | oral, 10 mg/kg/day, 4 h, repeated 5 days | – | concentration | 110 ± 45.6 ng/g |
| C=CCNc1c(O)cc2c(O)c1C[C@@H](C)C[C@H](OC)[C@H](O)[C@@H](C)/C=C(\C)[C@H](OC(N)=O)[C@@H](OC)/C=C\C=C(/C)C(=O)N2 | – | human unresectable metastatic GIST or sarcoma | concentration not given | – | QTc interval | no effect |
| CN1CCN(c2ccc(Nc3nccc(-c4ccnc(Cl)c4)n3)cc2C(F)(F)F)CC1 | – | zebrafish embryos | 50 µM, 5 d | – | toxicity | 30 ± 30% |
| CCc1ccc(CC/C=C/c2ccc3c(c2)C(=O)CC3)cc1 | – | Sprague-Dawley rat, male | oral, 120 mg/kg/day, 14 days | – | Erythrocyte percentage | 12.9% |
| CC(C)CC(=O)OC[C@H]1O[C@@](C#N)(c2ccc3c(N)ncnn23)[C@H](O)[C@@H]1O | – | mouse plasma | 0.9 to 90 µM | – | fraction bound | 0.836 |
| C=CC(=O)Nc1cc(Nc2nccc(Nc3cc(Cl)c(F)cc3C(C)(C)O)n2)c(OC)cc1N1CC[C@@H](N(C)C)C1 | – | human | oral, dose not given, phase I clinical | – | patients with adverse event Dizziness | 11.8% |
| Clc1cc(Cl)c(-c2cc(Cl)c(Cl)cc2Cl)cc1Cl | – | PDMS-water partitioning | PCB compilation | reference: maximum over minimum K | literature range factor | 3 |
| CN1CC[C@@H](c2c(O)cc(O)c3c(=O)cc(-c4ccc(C(F)(F)F)cc4Cl)oc23)[C@@H]1CO | measured: Thrombocytopenia | relapsed AML | oral, 100 mg, grade 3-4, intermittent dosing | – | patients with adverse event | 33.3% |
| c1ccc2c(c1)cc1ccc3cccc4ccc2c1c34 | – | polyethylene-water partitioning | PAH compilation | reference: maximum over minimum K | literature range factor | 31 |
| O=C(Nc1ccccc1)C1CCN(C(=O)Oc2cccnc2)CC1 | measured: dry mouth | healthy female humans | concentration not given, safety set, all doses pooled | – | TEAE incidence | 21% |
| COc1ccnc(C(=O)N[C@H]2COC(=O)[C@H](Cc3ccccc3)[C@@H](OC(=O)C(C)C)[C@H](C)OC2=O)c1OCOC(=O)C(C)C | – | straw, bran, forage, germ | -18 °C | – | storage stability of residues | 9 months |
| O=C(Nc1ccccc1)C1CCN(C(=O)Oc2cccnc2)CC1 | – | healthy women | oral, 100 mg, 9 days | – | adverse event Erythema | 0% |
| CC(C)C[C@@H]1NC(=O)CNC(=O)[C@H](CC(N)=O)NC(=O)[C@H](CCCNC(=N)N)NC(=O)[C@H]([C@@H](C)O)NC(=O)[C@@H]2CSSC[C@@H]3NC(=O)[C@H]([C@@H](C)O)NC(=O)[C@H](CCCCN)NC(=O)CNC(=O)[C@H](C(C)C)NC(=O)[C@@H]4CSSC[C@H](NC(=O)[C@H]([C@@H](C)O)NC(=O)[C@H](CSSC[C@H](NC(=O)[C@H](C(C)C)NC(=O)[C@@H]5CCCN5C1=O)C(=O)NCC(=O)N[C@@H](CCC(=O)O)C(=O)N[C@@H]([C@@H](C)O)C(=O)N4)NC(=O)CNC(=O)[C@@H]1CCCN1C(=O)[C@H]([C@@H](C)O)NC(=O)[C@H](CC(N)=O)NC3=O)C(=O)N[C@@H](CO)C(=O)N[C@@H](Cc1c[nH]c3ccccc13)C(=O)N1CCC[C@H]1C(=O)N[C@@H](C(C)C)C(=O)N2 | HPLC | water | 180 µM, 14 days, 37 °C, deamidation stability | – | remaining peptide | 99.7 ± 0.4% |
| C[C@@H](NC(=O)N1C(=O)[C@H](Cc2ccnc(N)c2)[C@H]1C(=O)O)C1CCCCC1 | – | healthy adult Chinese volunteers | continuous intravenous infusion, 2.25 mg/kg/h, 5-day infusion, CTCAE 5.0 grading | – | incidence of serious AEs | 0% |
| N.N.[Cl][Pt][Cl] | – | mouse xenograft model | dose not given, day 4 | – | body weight | 25 g and 24 g and 23 g |
| COc1ccc(-c2c(-c3ccc(C#N)c(F)c3)nc(N3CCC(N)CC3)n(C)c2=O)cc1F | measured: Neutropenia | human patients | oral, 60 mg, dose expansion | – | serious adverse event incidence | 0% |

| SMILES | test | system | setting | scale | measurement | result |
| --- | --- | --- | --- | --- | --- | --- |
| C[C@]1(CO)Cc2ncn(-c3ccc(C#N)c(Cl)c3)c2C(=O)O1 | – | healthy humans | concentration not given, food-effect part total | – | drug-related Somnolence incidence | 0% |
| CN(C)C(=O)c1cc2cnc(Nc3ccc(N4CCNCC4)cn3)nc2n1C1CCCC1 | measured: Hepatobiliary toxicity, AESI | human, HR+/HER2− advanced breast cancer | oral, dose not given, all grades, CTCAE v4.03 | – | patients with adverse event | 29.3% |
| CC(=O)N(C)[C@H]1CCN(C(=O)c2cnc3c(c2)C[C@](C)(c2ccc(F)cc2)N3)C1 | – | healthy male human | oral, 60 mg once daily, multiple rising dose, together with: midazolam | – | subjects with severe AEs | 0% |
| O[C@H]1CCCN[C@@H]1CCCn1cnc2c(Cl)c(Cl)ccc21 | – | healthy CYP2D6 extensive/ultrarapid metabolizers, plasma | oral, 150 mg multiple doses | – | median AUCtau | 785 ng·h/mL |
| O=S(=O)(Nc1ccccc1)c1ccc(NC(=S)Nc2ccccc2)cc1 | – | male mouse, blood | oral, 5 mg/kg daily, 14 days | – | potassium level | 8.55 mmol/L |
| c1cc2ccc3ccc4ccc5cccc6c(c1)c2c3c4c56 | – | fresh water | 12 (unit not given), 20 °C, S30-2 sampler, 30 µm | – | log K(PDMS-water) | 5.51 ± 0.08 |
| CCOc1cc(Oc2ccc(C(F)(F)F)cc2Cl)ccc1[N+](=O)[O-] | – | rat male | 15 mg/kg, 8 days | – | body weight gain | 66.1% |
| Clc1ccc(-c2cc(Cl)c(Cl)c(Cl)c2)cc1Cl | – | fresh water | 20 °C, S30-1 sampler, 30 µm | – | log K(PDMS-water) | 5.97 ± 0.06 |
| CC(C)[C@@H]1NC(=O)CNC(=O)[C@H](CC(N)=O)NC(=O)[C@H](CCCNC(=N)N)NC(=O)[C@H](Cc2ccc(O)cc2)NC(=O)[C@H](C(C)C)NC(=O)[C@@H](NC(=O)[C@@H](NC(=O)[C@H](CC(N)=O)NC(=O)[C@H](Cc2c[nH]c3ccccc23)NC(=O)[C@H](C)NC(=O)[C@H](Cc2ccccc2)NC(=O)CN)C(C)C)CSSC[C@@H](C(=O)N[C@@H](Cc2cnc[nH]2)C(=O)N[C@@H](CCCNC(=N)N)C(=O)N[C@@H](CCCNC(=N)N)C(=O)N[C@@H](C)C(=O)N[C@@H](CC(N)=O)C(N)=O)NC(=O)[C@H](C(C)C)NC(=O)[C@H](CCCNC(=N)N)NC1=O | – | ICR mouse, blood | intramammary, 5 mg/kg, day 5, 3 d dosing | – | lymphocytes | 76.28 ± 0.6% |
| O=C(O)CCC(CP(=O)(O)O)C(=O)O (stereo not drawn) | – | rat plasma | 0.3 µg/mL, -80 °C, freeze-thaw cycle 1 | – | measured concentration | 0.349 ± 0.005 µg/mL |
| C[C@@H]1NC(=O)[C@H](CCCCNC(=O)CO/N=C/C(=O)NCCCC[C@@H]2NC(=O)[C@@H](Cc3ccccc3)NC(=O)[C@H](CC(=O)O)NC(=O)CNC(=O)[C@H](CCCNC(=N)N)NC2=O)NC(=O)CNC(=O)[C@@H]2CCCN2C(=O)[C@H](CCCCNC(=O)CO/N=C/C(=O)NCCCC[C@@H]2NC(=O)[C@@H](Cc3ccccc3)NC(=O)[C@H](CC(=O)O)NC(=O)CNC(=O)[C@H](CCCNC(=N)N)NC2=O)NC(=O)[C@H](CCCCNC(=O)CN2CCCNCCNCCCNCC2)NC(=O)[C@H](CCCCNC(=O)CO/N=C/C(=O)NCCCC[C@@H]2NC(=O)[C@@H](Cc3ccccc3)NC(=O)[C@H](CC(=O)O)NC(=O)CNC(=O)[C@H](CCCNC(=N)N)NC2=O)NC(=O)CNC(=O)[C@@H]2CCCN2C(=O)[C@H](CCCCNC(=O)CO/N=C/C(=O)NCCCC[C@@H]2NC(=O)[C@@H](Cc3ccccc3)NC(=O)[C@H](CC(=O)O)NC(=O)CNC(=O)[C@H](CCCNC(=N)N)NC2=O)NC1=O [copper-64 labelled] | – | normal mice, pancreas | intravenous, 0.74 MBq, 24 h post-injection | – | tissue uptake | 0.42 ± 0.06 %ID/g |
| CN[C@H]1CC[C@@H](c2ccc(Cl)c(Cl)c2)c2ccccc21 | – | CD-1 mouse, male, lung | intraperitoneal, 0.3 mg/kg | – | Tmax | 1 h |
| N=C(N)NCCC[C@@H](NC(=O)[C@@H](N)Cc1ccccc1)C(=O)N[C@@H](Cc1ccccc1)C(=O)N[C@@H](CCCCN)C(N)=O | LC-MS | human | 15 mg, 11.83 h | – | median fraction excreted in urine | 8.01% |
| COc1cc2c(Oc3ccc4[nH]c(C)cc4c3F)ccnc2cc1OCC1(N)CC1 | – | paediatric recurrent refractory sarcoma | concentration not given, whole group | – | grade 3 Hypertension | 2.9% |
| CO[C@H]1C[C@@H]2CC[C@@H](C)[C@@](O)(O2)C(=O)C(=O)N2CCCC[C@H]2C(=O)O[C@H]([C@H](C)C[C@@H]2CC[C@@H](OC(=O)NCCOCCOCCOCCOCCOCCOCCOCCOCCC(=O)N3CCc4cc(Cn5nc(-c6ccc7oc(N)nc7c6)c6c(N)ncnc65)ccc4C3)[C@H](OC)C2)C[C@@H](O)[C@H](C)/C=C(\C)[C@@H](O)[C@@H](OC)C(=O)[C@H](C)C[C@H](C)/C=C/C=C/C=C/1C | – | advanced solid tumour patients | intravenous, dose not given, any grade, all doses | – | incidence of SAE | 33.3% |
| CC/C(=C(\c1ccccc1)c1ccc(OCCN(C)C)cc1)c1ccccc1 | – | CD-1 mouse, male, plasma | intraperitoneal, 1 mg/kg | – | elimination rate constant | 1.03e-05 s⁻¹ |
| Clc1cc2c(cc1Cl)Oc1cc(Cl)c(Cl)cc1O2 | – | female Sprague-Dawley rat | 10 µg/kg, every 28 d for 4 d | reference: vehicle | relative gonadal white adipose weight | 2 fold |
| CC(C)C[C@@H]1NC(=O)CNC(=O)[C@H](CC(N)=O)NC(=O)[C@H](CCCNC(=N)N)NC(=O)[C@H]([C@@H](C)O)NC(=O)[C@@H]2CSSC[C@@H]3NC(=O)[C@H](CCCCN)NC(=O)CNC(=O)CNC(=O)[C@H](C(C)C)NC(=O)[C@@H]4CSSC[C@H](NC(=O)[C@H]([C@@H](C)O)NC(=O)[C@H](CSSC[C@H](NC(=O)[C@H](C(C)C)NC(=O)[C@@H]5CCCN5C1=O)C(=O)NCC(=O)N[C@@H](CCC(=O)O)C(=O)N[C@@H]([C@@H](C)O)C(=O)N4)NC(=O)CNC(=O)[C@@H]1CCCN1C(=O)[C@H]([C@@H](C)O)NC(=O)[C@H](CC(N)=O)NC3=O)C(=O)N[C@@H](CO)C(=O)N[C@@H](Cc1c[nH]c3ccccc13)C(=O)N1CCC[C@H]1C(=O)N[C@@H](C(C)C)C(=O)N2 | HPLC | ammonium bicarbonate | 180 µM, 7 days, pH 9.0, 25 °C, deamidation stability | – | remaining peptide | 93.4 ± 0.6% |
| CC1(C)C(/C=C(\Cl)C(F)(F)F)C1C(=O)OC(C#N)c1cccc(Oc2ccccc2)c1 (stereo not drawn) | measured: CYP2C9 | human, age 6 months | – | – | enzyme contribution to clearance | 0.47% |

For quick reference, copied from above:
| SMILES | test | system | setting | scale | measurement | result |
| --- | --- | --- | --- | --- | --- | --- |
| Clc1cc2c(cc1Cl)Oc1cc(Cl)c(Cl)cc1O2 | – | female Sprague-Dawley rat | 10 µg/kg, every 28 d for 4 d | reference: vehicle | relative gonadal white adipose weight | 2 fold |
| CC(C)C[C@@H]1NC(=O)CNC(=O)[C@H](CC(N)=O)NC(=O)[C@H](CCCNC(=N)N)NC(=O)[C@H]([C@@H](C)O)NC(=O)[C@@H]2CSSC[C@@H]3NC(=O)[C@H](CCCCN)NC(=O)CNC(=O)CNC(=O)[C@H](C(C)C)NC(=O)[C@@H]4CSSC[C@H](NC(=O)[C@H]([C@@H](C)O)NC(=O)[C@H](CSSC[C@H](NC(=O)[C@H](C(C)C)NC(=O)[C@@H]5CCCN5C1=O)C(=O)NCC(=O)N[C@@H](CCC(=O)O)C(=O)N[C@@H]([C@@H](C)O)C(=O)N4)NC(=O)CNC(=O)[C@@H]1CCCN1C(=O)[C@H]([C@@H](C)O)NC(=O)[C@H](CC(N)=O)NC3=O)C(=O)N[C@@H](CO)C(=O)N[C@@H](Cc1c[nH]c3ccccc13)C(=O)N1CCC[C@H]1C(=O)N[C@@H](C(C)C)C(=O)N2 | HPLC | ammonium bicarbonate | 180 µM, 7 days, pH 9.0, 25 °C, deamidation stability | – | remaining peptide | 93.4 ± 0.6% |
| CC1(C)C(/C=C(\Cl)C(F)(F)F)C1C(=O)OC(C#N)c1cccc(Oc2ccccc2)c1 (stereo not drawn) | measured: CYP2C9 | human, age 6 months | – | – | enzyme contribution to clearance | 0.47% |
